Measured values gathered from unrelated publications.
Parts stem from different laboratories: compare values within a part only. Positions count from the first letter of the parent shown.

Study 1
Target: Serine/threonine-protein kinase 33 (STK33, Homo sapiens, UniProt Q9BYT3)
Sequence of UniProt Q9BYT3 (whole entry, looked up): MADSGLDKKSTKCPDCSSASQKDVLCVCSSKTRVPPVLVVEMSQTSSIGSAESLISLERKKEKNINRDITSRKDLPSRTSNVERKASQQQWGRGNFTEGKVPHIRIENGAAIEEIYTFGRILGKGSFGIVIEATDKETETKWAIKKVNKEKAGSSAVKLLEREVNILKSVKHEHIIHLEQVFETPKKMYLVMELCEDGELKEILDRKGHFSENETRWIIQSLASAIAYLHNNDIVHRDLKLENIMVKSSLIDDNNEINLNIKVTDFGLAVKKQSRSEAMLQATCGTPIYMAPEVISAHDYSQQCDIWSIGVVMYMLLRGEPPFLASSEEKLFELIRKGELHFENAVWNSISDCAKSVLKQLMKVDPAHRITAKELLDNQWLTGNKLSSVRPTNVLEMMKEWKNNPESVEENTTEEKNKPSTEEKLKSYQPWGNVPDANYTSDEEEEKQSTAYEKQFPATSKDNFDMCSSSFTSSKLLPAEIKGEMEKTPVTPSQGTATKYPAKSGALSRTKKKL
Effect on: enzyme activity
Mode: inhibitor
Method: radiometric
Concentration: 0.5 µM
Quantity: remaining activity
c1ccc(-c2cnc(Nc3ccc(OCCN4CCCC4)cc3)s2)cc1: 91%
CCN(CC)C(=O)c1ccc(Nc2nc(OCC3CCCCC3)c3[nH]cnc3n2)cc1: 67.2%
O=c1cc(-c2cccc3c2Sc2ccccc2S3)oc(N2CCOCC2)c1: 93.3%
O=C(Nc1cccc(Nc2nccc(Nc3cccc(C(F)(F)F)c3)n2)c1)C1CC1: 81.5%
O=C1Nc2ccc(Cl)cc2C1=Cc1cc(Cl)c(O)c(Cl)c1: 85.1%
Cc1cc2ncc(-c3ccccc3)nc2cc1C: 94.1%
C[C@@H]1CCN(C(=O)CC#N)C[C@@H]1N(C)c1ncnc2[nH]ccc12: 97.8%
O=C1C(Cl)=C(N2C(=O)CCC2=O)C(=O)c2ccccc21: 91.5%
O=C1c2ccccc2-[n+]2ccc3c([nH]c4ccccc43)c21: 101%
CCN(CC)CCNC(=O)c1c(C)[nH]c(/C=C2\C(=O)Nc3ccc(Cl)cc32)c1C: 20.6%
c1ccc(-c2[nH]ncc2-c2ccnc3ccccc23)nc1: 92.9%
COc1cc2ncnc(Nc3cccc(Cl)c3)c2cc1OC: 88.3%
CCOc1nc(NC(=O)Cc2cc(OC)ccc2OC)cc(N)c1C#N: 97.7%
CCN(CC)CCNC(=O)c1c(C)[nH]c(/C=C2\C(=O)Nc3ccc(F)cc32)c1C: 31.8%

Study 2
Target: inorganic phosphate, free oxyanion
Method: microfluidic competitive inhibition
Sample: in vitro, cell-free expressed
Concentration: not given
Setting: derived from inhibition constants, unchanged parent 615000 nM
Direction: lower = stronger binding
Quantity: phosphate dissociation constant
Starting sequence: PafA, mature enzyme, eGFP fusion (Elizabethkingia meningoseptica, UniProt Q9KJX5); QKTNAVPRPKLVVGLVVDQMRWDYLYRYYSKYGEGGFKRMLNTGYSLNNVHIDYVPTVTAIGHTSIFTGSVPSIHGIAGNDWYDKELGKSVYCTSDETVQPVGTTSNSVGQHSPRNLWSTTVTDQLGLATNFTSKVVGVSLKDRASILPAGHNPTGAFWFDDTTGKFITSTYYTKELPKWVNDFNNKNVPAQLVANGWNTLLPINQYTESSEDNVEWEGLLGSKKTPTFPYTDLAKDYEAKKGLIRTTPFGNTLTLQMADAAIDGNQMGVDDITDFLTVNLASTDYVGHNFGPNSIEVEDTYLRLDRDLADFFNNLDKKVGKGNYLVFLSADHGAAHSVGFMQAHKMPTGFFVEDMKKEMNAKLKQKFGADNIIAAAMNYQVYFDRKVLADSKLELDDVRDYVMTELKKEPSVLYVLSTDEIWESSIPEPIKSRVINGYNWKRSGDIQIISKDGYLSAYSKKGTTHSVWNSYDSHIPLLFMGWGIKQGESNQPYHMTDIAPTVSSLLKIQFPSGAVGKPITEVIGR
L507G: 525 µM
S433V: 565 µM
G488V: 500 µM
N49G: 453 µM
D81V: 994 µM
V17A: 717 µM
L478V: 673 µM
Y439V: 599 µM

Study 3
Target: CCNF, cyclin fold, Cln2 fusion (human)
Method: yeast growth competition, sequencing
Sample: yeast
Setting: strong parent motif
Relative to: not given
Direction: higher = stronger binding
Quantity: normalised enrichment score
Starting sequence: viral docking peptide; TSVRRALFTGGSD; partner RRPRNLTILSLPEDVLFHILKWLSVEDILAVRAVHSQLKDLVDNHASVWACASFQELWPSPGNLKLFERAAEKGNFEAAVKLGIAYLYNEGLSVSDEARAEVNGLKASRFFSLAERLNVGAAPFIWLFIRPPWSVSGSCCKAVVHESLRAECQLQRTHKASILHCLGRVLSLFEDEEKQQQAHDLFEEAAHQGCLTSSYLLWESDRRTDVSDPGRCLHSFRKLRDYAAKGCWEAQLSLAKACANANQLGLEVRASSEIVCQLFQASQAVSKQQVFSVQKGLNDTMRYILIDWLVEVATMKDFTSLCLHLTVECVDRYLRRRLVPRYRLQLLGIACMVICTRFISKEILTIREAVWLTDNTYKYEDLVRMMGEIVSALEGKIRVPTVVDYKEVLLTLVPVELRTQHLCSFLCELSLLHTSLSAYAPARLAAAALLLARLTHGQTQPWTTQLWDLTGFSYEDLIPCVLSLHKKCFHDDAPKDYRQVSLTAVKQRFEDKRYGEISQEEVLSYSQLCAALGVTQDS
R4F: 4.3
S2F: 7.23
G10E: 8.14
A6P: 6.23
V3W: 3.22
G10W: 8.71
T9Y: 8.83
V3D: -0.0158

Single results of other studies
CCn1cc(C(=O)O)c(=O)c2cc3c(cc21)OCO3  nuclear SOX9 intensity (mouse MPNST tumor cells; high-content immunofluorescence imaging, measured: nuclear SOX9; 10 µM, 12 h, mean of 2 replicates; relative to: DMSO control, higher = more nuclear SOX9): 118 % of DMSO
O=C1N=C(O)N=C(O)C1C1c2ccccc2Oc2nc(O)nc(O)c21 (stereo not drawn)  remaining compound (mouse, microsomes or S9; 2 µM, 0.5 h): 93.3%
Cc1cccc(NC(=O)N[C@@H]2N=C(c3ccccc3)c3ccccc3N(C)C2=O)c1  nuclear SOX9 intensity (mouse MPNST tumor cells; high-content immunofluorescence imaging, measured: nuclear SOX9; 10 µM, 12 h, mean of 2 replicates; relative to: DMSO control, higher = more nuclear SOX9): 99.1 % of DMSO

Excerpt of the above (study 1):
CCN(CC)C(=O)c1ccc(Nc2nc(OCC3CCCCC3)c3[nH]cnc3n2)cc1: 67.2%
O=c1cc(-c2cccc3c2Sc2ccccc2S3)oc(N2CCOCC2)c1: 93.3%
CCN(CC)CCNC(=O)c1c(C)[nH]c(/C=C2\C(=O)Nc3ccc(F)cc32)c1C: 31.8%
CCN(CC)CCNC(=O)c1c(C)[nH]c(/C=C2\C(=O)Nc3ccc(Cl)cc32)c1C: 20.6%
C[C@@H]1CCN(C(=O)CC#N)C[C@@H]1N(C)c1ncnc2[nH]ccc12: 97.8%
